Measured values gathered from unrelated publications.
Each line is one published result; not all experiments were run side by side. ± gives the spread as reported.

Compound | assay | system | setting | scale | measurement | value
COC(=O)c1cc(NC(=O)[C@H](CCCCN)NC(=O)c2cc(NC(=O)[C@H](CCCCN)NC(=O)c3cc(NC(=O)[C@H](CCCCN)NC(=O)c4cc(NC(=O)[C@@H](N)CCCCN)ccc4OC)ccc3OC)ccc2OC)ccc1OC | UV-vis λmax shift | TBS | pH 7.4, monomer-hexamer fit, added: NaCl 0.15 M | – | association midpoint concentration | 0.37 mM
Cc1ccc(OCC(=O)O)cc1 | – | Sprague-Dawley rat, male, plasma | oral, 30 mg/kg/day of parent drug, day 1, 90-day repeated dosing | – | Tmax | 3 h
COc1ccc(C=NCCCN(C)CCN(C)CCCN=Cc2ccc(OC)cc2[O-])c([O-])c1.[67Ga+3] | – | rat | intravenous, 2 h | relative to: heart over lung | tissue uptake ratio | 2.6 ± 0.3
Cc1cc(O)cc(O)c1C(=O)c1c2c3c(c(O)cc(C)c3oc1=O)C(=O)c1c(O)cc(O)cc1-2 | – | Caco-2 | 100 µM, 3 h, pH 7.4 | – | Papp A→B | 2.13 ×10⁻⁶ cm/s
CC(C)[C@H](NC(=O)CNC(=O)[C@H](CCC(N)=O)NC(=O)[C@H](C)N)C(=O)O | – | human, both sexes, plasma | intravenous infusion, 45 mg/kg/h, 2 h infusion, geometric mean | – | Cmax | 1380 ng/mL
O=C(/C=C/c1ccc(O)c(O)c1)NCCCCCCCC[P+](c1ccccc1)(c1ccccc1)c1ccccc1 | – | human, adrenal gland | concentration not given | – | bioaccumulation | 61.4%
CO[C@H]1/C=C/O[C@@]2(C)Oc3c(C)c(O)c4c(c3C2=O)C2=NC3(CCN(CC(C)C)CC3)NC2=C(NC(=O)/C(C)=C\C=C\[C@H](C)[C@H](O)[C@@H](C)[C@@H](O)[C@@H](C)[C@H](OC(=O)c2cccnc2)[C@@H]1C)C4=O | – | CD-1 mice, plasma | intravenous | relative to: metabolite AUC over parent AUC | deacylated metabolite exposure | 0.2%
CC(=O)N([O-])CCCCCNC(=O)CCC(=O)N([O-])CCCCCNC(=O)CCC(=O)N([O-])CCCCCN.[89Zr+4] | radio-iTLC | aqueous buffer | 1 h, pH 8.0, 37 °C, EDTA challenge, added: 100-fold excess EDTA | – | intact complex | 96.8 ± 1.3%
NS(=O)(=O)c1ccc(N2N=C(C(F)(F)F)CC2c2ccc(F)cc2F)cc1 (stereo not shown) | population PK model | Beagle dog | bootstrap median | – | CL1/F other elimination | 0.193 L/h
O=C(NCCCN(CCCCN(CCCNC(=O)c1cccc(=O)n1[O-])C(=O)c1cccc(=O)n1[O-])C(=O)c1cccc(=O)n1[O-])c1cccc(=O)n1[O-].[89Zr+4] | – | mouse, kidney | 1 h | – | tracer uptake | 1.05 %ID/g
COc1ccc(-c2csc(N/N=C(\C)c3cc(O)cc(O)c3)n2)cc1 | LC-MS/MS | rat plasma | 3.75 ng/mL, 5 h, 25 °C, bench-top storage | – | concentration change | 9.07%
CC(C)(O)c1ncc([S@](N)(=O)=NC(=O)Nc2c3c(cc4c2CCC4)CCC3)s1 | – | healthy human | oral, 200 mg once daily, day 14, spray-dried dispersion, geometric mean | – | Cmax | 26300 ng/mL
O=C(Cc1ccc2ccccc2c1)N[C@H](Cc1ccccc1)C(=O)N[C@H](Cc1ccccc1)C(=O)N[C@H](Cc1ccc(OP(=O)(O)O)cc1)C(=O)N[C@H](Cc1ccc(OP(=O)(O)O)cc1)C(=O)O | substrate, rheology | hydrogel | 0.5 wt%, added: alkaline phosphatase 0.05 U/mL | – | gelation time | 3.7 h
O=C(CCc1ccc(CNC(C(=O)OC2CCCC2)C2CCCCC2)cn1)NO (stereo not shown) | – | human, plasma | oral, 40 mg once daily, day 1, geometric mean | – | AUC(tau) | 160 ng·h/mL
COc1cc2c(cc1OC)CN(CCCCn1ccc3cc(OCC[18F])ccc31)C2 | – | ICR mice, male, small intestine | intravenous, 120 min | – | uptake | 20.5 ± 1.33 %ID/organ
Cn1c(=O)oc2ccc(-c3ccc(CC(C#N)NC(=O)C4CNCCCO4)c(F)c3)cc21 (stereo not shown) | – | human | oral, 20 mg once daily, TEAE, multiple ascending dose | – | bacterial test positive incidence | 0%
CC(C)CCCC(C)CCCC(C)CCOC1OC[C@@H](O)[C@H](O)[C@H]1O (stereo partly shown) | drop shape analysis | water/n-octane | solubility limit, 100 s, room temperature | – | interfacial tension | 21.2 mN/m

Compound | assay | system | setting | scale | measurement | value
C[Si]1(C[C@@H](CN)CC(=O)O)CCCC1 | – | male Sprague-Dawley rat, plasma | oral, 30 mg/kg, single dose | – | Tmax | 0.67 h
CC(C)c1cnc(-c2cc(Cl)ccc2F)cc1Nc1ccncc1C(=O)NC(CO)CO | monotherapy, measured: vomiting | human patients | oral, dose not given, grade 3, phase I A | – | patients with treatment-related adverse event | 0%
N=C(N)NCCC[C@@H]1NC(=O)[C@H](Cc2c[nH]c3ccccc23)NC(=O)[C@@H](CC2CCCCC2)NC(=O)[C@@H]2CCCN2C(=O)[C@@H](NC(=O)CCc2ccccc2)CCCNC1=O | – | C57BL/6J mice, brain | intraperitoneal, 1 mg/kg, two-compartment model | – | apparent total clearance (CL/F) | 1.27 ng/(min·ng/g)
COc1cccc(C=NCCCN(C)CCN(C)CCCN=Cc2cccc(OC)c2[O-])c1[O-].[67Ga+3] | – | rat | intravenous, 2 h | relative to: heart over lung | tissue uptake ratio | 2.9 ± 0.4
COC(=O)c1ccc2c(c1)NC(=O)/C2=C(\Nc1ccc2c(c1)CCN2C(=O)CN1CCOCC1)c1ccccc1 | – | beagle dog, plasma | intravenous, 2 mg/kg | – | clearance | 31.2 mL/min/kg
OCc1cn(Cc2ccc(-c3noc(-c4ccc(OCC[18F])c(C(F)(F)F)c4)n3)cc2)nn1 | – | Lewis rats, female, hippocampus | intravenous, 5 min | – | brain uptake | 0.43 %ID/g
C=CC(=O)Nc1cc(Nc2nccc(-c3cn(C4CC4)c4ccccc34)n2)c(OC)cc1NC | radio-HPLC | human male, feces | oral, 110 mg, 0 to 48 h, sample holds 45.32% dose | relative to: dose | excreted amount | 0.34%
O=C([O-])CN1CCN(CC(=O)[O-])CCN(CC(=O)NCC2CCC(C(=O)NC(Cc3ccc4ccccc4c3)C(=O)NCCCCC(NC(=O)NC(CCC(=O)O)C(=O)O)C(=O)O)CC2)CCN(CC(=O)[O-])CC1.[44Sc+3] (stereo not shown) | transmetallation stability | – | 24 h, 37 °C, added: Ca2+ 10 mM | – | intact complex | 96.7 ± 0.8%
CCCC[C@@H]1NC(=O)[C@@H](NC(=O)[C@H](CCC(=O)O)NC(=O)CNC(=O)CN2CCN(CC(=O)O)CCN(CC(=O)O)CCN(CC(=O)O)CC2)CCCCNC(=O)C[C@@H](C(N)=O)NC(=O)[C@H](C(C)C)NC(=O)[C@@H]2CCCN2C(=O)[C@H](CCCNC(=N)N)NC(=O)CNC(=O)[C@H](Cc2c[nH]c3ccccc23)NC(=O)[C@H](CCCNC(=N)N)NC(=O)[C@@H](Cc2ccccc2)NC(=O)[C@H](Cc2c[nH]cn2)NC(=O)[C@H](CCC(=O)O)NC1=O [gallium-67 labelled] | – | C57 mice with B16/F1 melanoma, stomach | intravenous, 0.037 MBq, 0.5 h | – | tissue uptake | 1.3 ± 0.36 %ID/g
O=C(O)c1cccc(S(=O)(=O)Nc2ccccc2)c1 | – | human, severe liver dysfunction, plasma | intravenous, 400 mg/m^2 belinostat, cycle 1 day -7, geometric mean | relative to: metabolite over belinostat | AUC(0-inf) metabolic ratio | 0.825
[11CH3]c1ccc2nc(C3CCC3)n(-c3ccc4[nH]ncc4c3)c2n1 | radio-HPLC | Sprague-Dawley rat, brain | 30 min | – | intact parent fraction | 92%
O=C(CCCCC[N+]#[C][99Tc-5]([C]#[N+]CCCCCC(=O)N[C@H]1C(O)O[C@H](CO)[C@@H](O)[C@@H]1O)([C]#[N+]CCCCCC(=O)N[C@H]1C(O)O[C@H](CO)[C@@H](O)[C@@H]1O)([C]#[N+]CCCCCC(=O)N[C@H]1C(O)O[C@H](CO)[C@@H](O)[C@@H]1O)([C]#[N+]CCCCCC(=O)N[C@H]1C(O)O[C@H](CO)[C@@H](O)[C@@H]1O)[C]#[N+]CCCCCC(=O)N[C@H]1C(O)O[C@H](CO)[C@@H](O)[C@@H]1O)N[C@H]1C(O)O[C@H](CO)[C@@H](O)[C@@H]1O (stereo partly shown) | two-compartment model | CD-1 mouse, blood | dose not given | – | peripheral volume of distribution | 0.003 L/kg
NC(=O)[C@@H](CCCCNC(=O)CNC(=O)CCC(=O)NCCc1c[nH]cn1)NC(=O)[C@@H](CCC(=O)O)NC(=O)[C@@H](CCCCNC(=O)CNC(=O)CCC(=O)NCCc1c[nH]cn1)NC(=O)[C@@H](Cc1ccc(O)cc1)NC(=O)CN1CCN(CC(=O)O)CCN(CC(=O)O)CCN(CC(=O)O)CC1 [indium-111 labelled] | SPECT | human, CEACAM5-expressing tumours, tumour | intravenous, dose not given, 24 h, added: TF2 pretargeting 150 mg | – | tumour activity concentration | 5.9 %ID/kg
CCCC[C@H](NC(C)=O)C(=O)N[C@H]1CC(=O)NCCCC[C@@H](C(=O)N[C@@H](C(=O)N2CCC[C@@H]2C(N)=O)C(C)C)NC(=O)[C@H](Cc2c[nH]c3ccccc23)NC(=O)[C@H](CCCN=C(N)N)NC(=O)[C@@H](Cc2ccc3ccccc3c2)NC(=O)[C@@H]2CCCN2C1=O | – | Beagle dog, both sexes, plasma | subcutaneous, once daily, 2.25 mg/kg, day 5 | – | AUC | 32300 ± 5200 ng·h/mL
CC(C)C[C@@H](NC(=O)[C@H](NC(=O)[C@H]1CCCN1)[C@H](C)O)C(=O)N[C@H](Cc1c[nH]cn1)C(=O)N[C@@H](C(=O)N[C@H](Cc1c[nH]cn1)C(=O)N[C@H](CC(N)=O)C(=O)N[C@H](CCCNC(=N)N)C(=O)N[C@H](CCCNC(=N)N)C(=O)N[C@H](CCCNC(=N)N)C(=O)N[C@H](CCCNC(=N)N)C(=O)N[C@H](CCCNC(=N)N)C(N)=O)[C@H](C)O | – | Beagle dog, plasma | oral, 50 mg/kg | – | AUC share of terminal phase | 76%
CCCC[C@H](NC(=O)CNC(=O)CNC(=O)CN1CCN(CC(=O)O)CCN(CC(=O)O)CCN(CC(=O)O)CC1)C(=O)N[C@H]1CC(=O)NCCCC[C@@H](C(N)=O)NC(=O)[C@H](Cc2c[nH]c3ccccc23)NC(=O)[C@H](CCCNC(=N)N)NC(=O)[C@@H](Cc2ccccc2)NC(=O)[C@H](Cc2c[nH]cn2)NC1=O [gallium-67 labelled] | – | female C57 mice, B16/F1 melanoma, skin | intravenous, 0.037 MBq, 2 h | – | tissue uptake | 0.84 ± 0.25 %ID/g
COc1cc(NC(C)=O)c2c(c1O)-c1c(OC)c(OC)cc3c1C(C2)N(C)CC3 (stereo not shown) | – | rat heart homogenate | 5 µg/mL, 40 d, -20 °C, long-term storage | – | remaining compound | 99.4 ± 1.7%

For quick reference, copied from above:
Compound | assay | system | setting | scale | measurement | value
Cc1cc(O)cc(O)c1C(=O)c1c2c3c(c(O)cc(C)c3oc1=O)C(=O)c1c(O)cc(O)cc1-2 | – | Caco-2 | 100 µM, 3 h, pH 7.4 | – | Papp A→B | 2.13 ×10⁻⁶ cm/s
CC(C)c1cnc(-c2cc(Cl)ccc2F)cc1Nc1ccncc1C(=O)NC(CO)CO | monotherapy, measured: vomiting | human patients | oral, dose not given, grade 3, phase I A | – | patients with treatment-related adverse event | 0%
O=C(O)c1cccc(S(=O)(=O)Nc2ccccc2)c1 | – | human, severe liver dysfunction, plasma | intravenous, 400 mg/m^2 belinostat, cycle 1 day -7, geometric mean | relative to: metabolite over belinostat | AUC(0-inf) metabolic ratio | 0.825
O=C(NCCCN(CCCCN(CCCNC(=O)c1cccc(=O)n1[O-])C(=O)c1cccc(=O)n1[O-])C(=O)c1cccc(=O)n1[O-])c1cccc(=O)n1[O-].[89Zr+4] | – | mouse, kidney | 1 h | – | tracer uptake | 1.05 %ID/g
